Results collected from several papers.
Each line is one published result; not all experiments were run side by side. ± marks the error that the study gave.
rep main protease: Replicase polyprotein 1ab, main protease (rep, Severe acute respiratory syndrome coronavirus 2, UniProt P0DTD1)

COc1ccc(-c2ncnc3[nH]nc(C#Cc4cccnc4)c23)cc1OC
EC50 (Venezuelan equine encephalitis virus; viral replication; U-87 MG, TC-83): 4.22 ± 1.68 µM

COc1cccc(-c2nc(C(=O)NCC=CS(C)(=O)=O)c(C)[nH]2)c1
IC50 (Venezuelan equine encephalitis virus; viral replication; MRC5): > 10 µM

CS(=O)(=O)NCC1CCOC2(CCN(C(=O)C3(c4ccccc4)CCC3)CC2)C1 (centres unmarked)
EC50 (Venezuelan equine encephalitis virus; viral replication): > 39.8 µM

O=C(N1CCC2(CC1)C[C@H](CN1CCCCS1(=O)=O)CCO2)C1(c2ccccc2)CCCC1
EC50 (Venezuelan equine encephalitis virus; viral replication; MRC5): 0.27 µM

CN(C)S(=O)(=O)NCC1CCOC2(CCN(C(=O)C3(c4ccncc4)CCCC3)CC2)C1 (centres unmarked)
EC50 (Venezuelan equine encephalitis virus; viral replication): > 39.8 µM

CC[C@H](C)[C@H](NC(=O)[C@H](CC(C)C)NC(=O)[C@H](Cc1c[nH]c2ccccc12)NC(=O)[C@H](CCC(N)=O)NC(=O)[C@@H](NC(=O)[C@H](Cc1ccccc1)NC(=O)[C@H](C)NC(=O)[C@H](CCCCNC(=O)COCCOCCNC(=O)COCCOCCNC(=O)CC[C@H](NC(=O)CCCCCCCCCCCCCCCCCCC(=O)O)C(=O)O)NC(=O)[C@H](CCC(N)=O)NC(=O)[C@H](C)NC(=O)[C@@H](NC(=O)[C@H](CCCCN)NC(=O)[C@H](CC(=O)O)NC(=O)[C@H](CC(C)C)NC(=O)C(C)(C)NC(=O)[C@@H](NC(=O)[C@H](CO)NC(=O)[C@H](Cc1ccc(O)cc1)NC(=O)[C@H](CC(=O)O)NC(=O)[C@H](CO)NC(=O)[C@@H](NC(=O)[C@H](Cc1ccccc1)NC(=O)[C@@H](NC(=O)CNC(=O)[C@H](CCC(=O)O)NC(=O)C(C)(C)NC(=O)[C@@H](N)Cc1ccc(O)cc1)[C@@H](C)O)[C@@H](C)O)[C@@H](C)CC)[C@@H](C)CC)C(C)C)C(=O)N[C@@H](C)C(=O)NCC(=O)NCC(=O)N1CCC[C@H]1C(=O)N[C@@H](CO)C(=O)N[C@@H](CO)C(=O)NCC(=O)N[C@@H](C)C(=O)N1CCC[C@H]1C(=O)N1CCC[C@H]1C(=O)N1CCC[C@H]1C(=O)N[C@@H](CO)C(N)=O
serum ALT (healthy subjects, serum; 4.5 mg, day 29, multiple ascending dose): 22 ± 10.2 U/L

Cn1cnc(Cn2c(=O)[nH]/c(=N\c3cc4cn(C)nc4cc3Cl)n(Cc3cc(F)c(F)cc3F)c2=O)n1
MRT (human, severe renal impairment, plasma; oral, 375 mg single dose): 105 h

CC1(C(=O)N2CCC3(CC2)CC(CNS(C)(=O)=O)CCO3)CCCC1 (centres unmarked)
EC50 (Venezuelan equine encephalitis virus; viral replication): > 39.8 µM

O=C(CCl)NCC#CC1CCCCO1 (centres unmarked)
IC50 (Venezuelan equine encephalitis virus; viral replication; MRC5): > 10 µM

NC(=O)NCC1CCOC2(CCN(C(=O)C3(c4ccccc4)CCCC3)CC2)C1 (centres unmarked)
EC50 (Venezuelan equine encephalitis virus; viral replication): 3.98 µM

Nc1ncnc2c([C@@H]3N[C@H](CO)[C@@H](O)[C@H]3O)c[nH]c12
inhibition (Venezuelan equine encephalitis virus; viral replication; HeLa, SH3; 3.1 µM): 0.2%

O=c1nc(NO)ccn1[C@@H]1O[C@H](CO)[C@@H](O)[C@H]1O
IC50 (Venezuelan equine encephalitis virus; viral replication, nLuc reporter; TC-83 nLuc-nsP3): 1.6 ± 0.5 µM

Cc1ccc(S(=O)(=O)N[C@@H](Cc2ccccc2)C(=O)CCl)cc1
inhibition (rep main protease; reporter gene (Gaussia luciferase), inhibitor; 20 µM): 1.24%

COc1ccc(-c2ccnc3[nH]cc(C#Cc4cccnc4)c23)cc1F
EC50 (Venezuelan equine encephalitis virus; viral replication; U-87 MG, TC-83): 2.04 ± 0.58 µM

CC1(C)[C@@H](O)CC[C@]2(C)[C@H]3C(=O)C=C4[C@@H]5C[C@@](C)(C(=O)O)CC[C@]5(C)CC[C@@]4(C)[C@]3(C)CC[C@@H]12
Kd (Spike glycoprotein (Severe acute respiratory syndrome coronavirus 2, UniProt P0DTC2); binding, BLI): 38.7 µM

Cn1cc(-c2ncc(C(=O)NCC=CS(C)(=O)=O)s2)cn1
IC50 (Venezuelan equine encephalitis virus; viral replication; MRC5): > 10 µM

CS(=O)(=O)NCC1CCOC2(CCN(C(=O)C3(c4ccccc4)CCOCC3)CC2)C1 (centres unmarked)
inhibition (Venezuelan equine encephalitis virus; viral replication; 40 µM): 20%

C=CC(=O)N1CCCC(C(=O)O)(C(F)(F)F)C1 (centres unmarked)
IC50 (Venezuelan equine encephalitis virus; viral replication; MRC5): 4.7 ± 1.6 µM

COc1ccccc1Nc1nc(-c2sc(NC(C)=O)nc2C)cs1
inhibition (rep main protease; viral replication, Gluc reporter; SARS-CoV-2; 20 µM): -5.11%

COc1ccc(-c2ncnc3[nH]cc(C#Cc4cccnc4)c23)cc1OC
EC50 (Venezuelan equine encephalitis virus; viral replication; U-87 MG, TC-83): 6.04 ± 1.38 µM
